Experimental data of several laboratories.
A part holds a random share of what one study measured. Changes are numbered by the printed parent chain.

Sample 1 — technique: universal PBM; molecule type: double-stranded DNA, one strand shown; matrix: in vitro; tested at: 600 nM; reading: higher = stronger binding
Target: Sal-like protein 4, full length isoform A (SALL4, Homo sapiens, UniProt Q9UJQ4, residues 1-1053)
UniProt Q9UJQ4, sequence (whole entry, looked up): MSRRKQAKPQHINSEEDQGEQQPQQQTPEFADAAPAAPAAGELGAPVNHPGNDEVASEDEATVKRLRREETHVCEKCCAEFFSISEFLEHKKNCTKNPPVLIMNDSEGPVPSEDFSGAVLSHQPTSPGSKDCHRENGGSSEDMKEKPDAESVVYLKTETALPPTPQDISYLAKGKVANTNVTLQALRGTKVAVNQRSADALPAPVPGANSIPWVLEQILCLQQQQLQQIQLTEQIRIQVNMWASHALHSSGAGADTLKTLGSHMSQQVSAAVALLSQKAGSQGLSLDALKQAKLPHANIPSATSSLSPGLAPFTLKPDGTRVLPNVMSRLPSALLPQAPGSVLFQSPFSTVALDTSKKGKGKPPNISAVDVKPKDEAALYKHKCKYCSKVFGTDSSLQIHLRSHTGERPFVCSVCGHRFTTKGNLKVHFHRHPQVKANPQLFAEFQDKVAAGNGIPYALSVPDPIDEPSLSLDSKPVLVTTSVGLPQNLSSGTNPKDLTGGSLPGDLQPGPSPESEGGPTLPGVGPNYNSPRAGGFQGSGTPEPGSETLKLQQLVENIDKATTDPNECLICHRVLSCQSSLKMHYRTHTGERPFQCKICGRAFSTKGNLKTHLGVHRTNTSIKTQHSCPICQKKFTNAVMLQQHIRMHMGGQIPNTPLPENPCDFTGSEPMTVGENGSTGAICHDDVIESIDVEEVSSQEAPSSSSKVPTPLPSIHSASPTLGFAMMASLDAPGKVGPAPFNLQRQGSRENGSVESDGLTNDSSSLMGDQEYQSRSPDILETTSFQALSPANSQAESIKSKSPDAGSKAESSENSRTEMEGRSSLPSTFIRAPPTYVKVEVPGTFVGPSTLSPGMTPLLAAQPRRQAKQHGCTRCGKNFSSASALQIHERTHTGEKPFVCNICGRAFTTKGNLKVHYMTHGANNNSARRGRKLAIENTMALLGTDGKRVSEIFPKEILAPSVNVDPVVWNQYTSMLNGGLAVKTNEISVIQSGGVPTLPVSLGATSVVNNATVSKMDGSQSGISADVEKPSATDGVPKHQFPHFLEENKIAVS
Setting: 8-mer, flanks averaged, mean of replicates
| Oligonucleotide | E-score |
| --- | --- |
| TGAATTCA | 0.121 |
| CCGACTGC | -0.307 |
| GATCTGCC | -0.139 |
| TGGATGAA | 0.053 |
| GCATTCAA | 0.146 |
| GCAGCTAA | -0.233 |
| TAAAAGGA | 0.19 |
| CGCCGGCA | -0.246 |
| ACTGGCAA | 0.144 |
| CATCCTTC | 0.0761 |
| TAGCCACA | 0.0121 |
| AGCTGCAA | -0.0424 |
| CACAATTA | 0.239 |
| CGAGCATC | -0.202 |
| GGACTCTA | -0.102 |
| ATAGACCA | 0.0698 |
| GCCGAATA | 0.0273 |
| TCACAGCA | 0.000475 |
| AATCTTTC | 0.146 |
| CGGTGACA | -0.194 |
| AACGGTAC | -0.0541 |
| AGTGTAAA | 0.232 |
| CAACTGGC | -0.133 |
| GTCTGCCA | -0.142 |
| AATACTGT | 0.244 |

Sample 2 — target: CCNA1, cyclin fold, Cln2 fusion (human); technique: yeast growth competition, sequencing; matrix: yeast; setting: weak parent motif; reference: not given; reading: higher = stronger binding
Starting sequence: PKMYT1 docking peptide (human); SFEPRNLLSLFED
| Change | normalised enrichment score |
| --- | --- |
| L8H | 0.322 |
| E3Y | 0.566 |
| L7F | 0.514 |
| F2M | -0.206 |
| E3W | -0.0273 |
| L7E | -0.0351 |
| E12T | -0.32 |
| D13G | 0.0451 |
| L7H | 0.24 |
| S1I | 0.188 |
| L10K | 0.0412 |
| E12L | -0.395 |
| S1M | 0.614 |
| N6Q | 0.304 |
| L7K | 0.16 |
| S1K | -0.173 |
| F11S | 0.411 |
| N6M | -0.555 |

Sample 3 — technique: competition protein-binding microarray; molecule type: double-stranded DNA, one strand shown; matrix: in vitro; tested at: 2 µM; together with: Pho4 competitor, 0.05 µM; reading: higher = stronger binding; constant ends, left off below: … GTCTTGATTCGCTTGACGCTGCTG
Target: Centromere-binding protein 1, full length, His-tagged (CBF1, Saccharomyces cerevisiae, UniProt P17106, residues 1-351)
UniProt P17106, sequence (whole entry, looked up): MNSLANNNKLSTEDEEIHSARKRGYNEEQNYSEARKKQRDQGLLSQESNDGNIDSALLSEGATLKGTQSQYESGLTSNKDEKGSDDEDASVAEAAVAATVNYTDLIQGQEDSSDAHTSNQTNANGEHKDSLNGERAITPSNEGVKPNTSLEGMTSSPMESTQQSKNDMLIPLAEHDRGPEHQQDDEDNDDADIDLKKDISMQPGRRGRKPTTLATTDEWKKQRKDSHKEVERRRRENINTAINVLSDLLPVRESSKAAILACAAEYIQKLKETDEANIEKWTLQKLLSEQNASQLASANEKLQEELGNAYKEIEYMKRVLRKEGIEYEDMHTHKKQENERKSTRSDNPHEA
Setting: whole 60-bp probe, lowest competitor level
| Oligonucleotide | fluorescence intensity [a.u.] |
| --- | --- |
| TCCAGTGAAGCGCCCCTCGTGCTTTGGAAATCCCTG | 154 |
| CTAGACCAGTAGCAACACATGGACCGATAACACCAG | 72 |
| TTTTACATGAAACTGCGCGTGCCAGAAATGTTAAGA | 126 |
| AAAGCGGTAATTTGATTTGTGGGTGCAGATATCTAT | 97.7 |
| ATAGAGCTGTATTCTGAAGACCTCTTGTAGAACATC | 78.1 |
| AATTGGGGTGCGAGTCACGTGCAAAACGACGGTAGT | 5900 |
| ATACCAGCACCAGACAACATGGCTCGGTAACCACCA | 61.7 |
| AAATTACTAAGTTGATACGTGGGTGACGCCGTATGA | 80.1 |
| GCCACTTTGTAGCGTCACAATGACTGGGTTTCCCAA | 68.7 |
| AAAGCGGTAATTTGCAGGGTGGGTGCAGATATCTAT | 65 |
| TGCGCAACAACTTGGCGAGTGGGTGTATGTCTAGAA | 56.9 |
| TGCGCAACAACTTGAGCCGTGGGTGTATGTCTAGAA | 49.6 |
| CTTTCCCGATCTTGTTATGTGGGTGTAGCACATTTG | 91.5 |
| CTTCTGTAAATTTGTGCCGTGGGTGGACGCGCCCCG | 81.2 |
| TGTTAAGTTCAACAACATGTGAAATTCTTAGCTCCG | 117 |
| AGCGTTCAACTAGTCTACTAAAAAGTAAAAGAGTTA | 80.4 |
| CTAACGAAGGTTTGCAGTGTGGGTGACAAGCCAAGT | 68.8 |
| AAATTACTAAGTTGCTGGGTGGGTGACGCCGTATGA | 78.9 |
| GTACATGTCCGCCATCACGTGGTGAAGATGTAGTAT | 2350 |
| AAATTACTAAGTTGCCACGTGGGTGACGCCGTATGA | 988 |
| AGGTTAGGTGTCCATCACGTGCTAAAACCAGCGACT | 6170 |
| AAAGCGGTAATTTTTCACGTGTATTCACATATCTAT | 940 |
| TGCGCAACAACTTTTCACGTGCGGTTATGTCTAGAA | 918 |

Sample 4 — technique: RNA Bind-n-Seq; molecule type: RNA; matrix: in vitro; tested at: 200 nM; setting: whole 134-nt RNA, ends assumed; together with: 150 mM KCl; reference: input library; reading: higher = stronger binding
Target: Ras GTPase-activating protein-binding protein 1, full length (G3BP1, Homo sapiens, UniProt Q13283)
UniProt Q13283, sequence (whole entry, looked up): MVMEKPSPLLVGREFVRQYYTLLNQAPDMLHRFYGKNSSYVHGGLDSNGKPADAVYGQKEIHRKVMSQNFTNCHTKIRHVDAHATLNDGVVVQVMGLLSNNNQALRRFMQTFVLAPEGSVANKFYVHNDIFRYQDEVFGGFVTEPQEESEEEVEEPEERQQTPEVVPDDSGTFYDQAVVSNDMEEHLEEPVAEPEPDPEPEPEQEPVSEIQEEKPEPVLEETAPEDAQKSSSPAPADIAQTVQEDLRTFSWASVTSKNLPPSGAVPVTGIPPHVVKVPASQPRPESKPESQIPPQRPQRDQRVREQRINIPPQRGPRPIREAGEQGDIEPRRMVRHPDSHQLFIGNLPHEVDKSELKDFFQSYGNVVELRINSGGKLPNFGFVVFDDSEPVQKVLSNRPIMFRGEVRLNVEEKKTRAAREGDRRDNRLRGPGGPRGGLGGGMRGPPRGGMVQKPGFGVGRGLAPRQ
Constant ends, left off below: GGGAGUUCUACAGUCCGACGAUC … UGGAAUUCUCGGGUGUCAAGG
| Oligonucleotide | log2 enrichment |
| --- | --- |
| UGGGAGGUGGAUUUUGUUUAUUUUUUUAGCUCAUUUCCAGGGGGGGGAAUUUUUUUUUAAUAUGUGUCAUGAAUAAAGUUGUUUUUGAAA | 0.438 |
| GGGGGUGACCGCCGGAGCGCGGCGUGAGCCCUCCCCCUUGGGAUCCCGCAGCUGACCAGUCGCGCUGACGGACAGACAGACAGACACCGC | -0.555 |
| UAGUCACCUACUGCCACCUUCGAAAAACACGGAGAGCACCUACCCAGAGGAGAAGGUAGAUUUGGAGUAAGCCGCCGUCGACAUAAUUCC | 0.378 |
| GUCCUGUGCUACACAUCGUAUGUACCGAAUCGGGGAAAAAGGAAAAAGGAAAAAGGGGAAAGUAUUAUGUUACGCCGUUCGGAUCUGCAC | -0.543 |
| UCAAGUCCUGUGCUACACAUCGUAUGUACCGAAUCGGGGUUGGGGUUGGUUGGGAAAGUAUUAUGUUACGCCGUUCGGAUCUGCACUUCC | 0.462 |
| CCUGUGCUACACAUCGUAUGUACCGAAUCGGGGAAAAAAAGGAAAAAAAGGAAAAAAAGGGAAAGUAUUAUGUUACGCCGUUCGGAUCUG | -0.629 |
| GCAGGAAGUAAAAAAAAAUGGAAAUGCUUCGGAUAGUGGCAGGGGUGGGGGUUGCUAAGGAAAGGGUGGGAUGGGAGUGGGUAAAGAGUU | 0.474 |
| GCUGUUGGAGUGGAUCCGCCGCACAAUCCCGUGGCUGGAGAACCGGGUGCCCGAGAACACCAUGCAUGCCAUGCAACAGAAGCUGGAGGA | -2 |
| CAAGUCCUGUGCUACACAUCGUAUGUACCGAAUCGGAGGAAAAAGGAAAAAAAGGAAAGUAUUAUGUUACGCCGUUCGGAUCUGCACUUC | -0.755 |
| UUUUACUUCUCCGCCAGGUGCUGUGCUCCAUCAUCGCCGGUACCUUGCACUAUCUCUACCUGGCCACCUUGACCUGGAUGCUGCUGGAGG | 0.0799 |
| GCAGGAAGUAAAAACAAAUGGAAAUGCUUCGGAUAGUGGCAGGGGUGGGGGUUGCUAAGGAAAGGGUGGGAUGGGAGUGGGUAAACAGUU | 0.803 |
| UGGGCUGGAUGGCUCAGUUCCCCCAGACCUGGACUGGAAGGGCCAGCCACCUGCACCUCCUAAAAAGGGACUGCUGCAGAGACUCUUCAG | -0.727 |
| AGUCCUGUGCUACACAUCGUAUGUACCGAAUCGGGAGGGUUUUUUUGGGUUUUUGGGAAAGUAUUAUGUUACGCCGUUCGGAUCUGCACU | -0.393 |
| UCAAGUCCUGUGCUACACAUCGUAUGUACCGAAUCGGGUUGGUUGGGGUUGGGGAAAGUAUUAUGUUACGCCGUUCGGAUCUGCACUUCC | 0.631 |

Sample 5 — technique: RNA Bind-n-Seq; molecule type: RNA; matrix: in vitro; tested at: 365 nM; reference: no-protein control; reading: higher = stronger binding
Target: RNA binding protein fox-1 homolog 2, RRM domain, GST-SBP tag (RBFOX2, Homo sapiens, UniProt O43251-10, residues 100-194)
Setting: natural RNA segment, single round, ends assumed
Constant ends, left off below: GGGAGUUCUACAGUCCGACGAUC … UGGAAUUCUCGGGUGCCAA
Target sequence (chain): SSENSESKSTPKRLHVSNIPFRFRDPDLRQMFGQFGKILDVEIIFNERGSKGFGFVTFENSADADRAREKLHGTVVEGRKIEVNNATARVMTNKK
| Oligonucleotide | RBNS enrichment (R) |
| --- | --- |
| CUGGUGGAAGGCCCCUCCCCAUCGCCAGCCGGGCCCUCAUGCUGACCUUGCAAAUUCAGCCGCUGCUUUGAGCCCAAAAUGGGAAUAUUGGUUUUGUGUCCGAGGCUUGU | 0.567 |
| CUCAGGUUCAGUGGGACUGCCACUGUUAAGGAAGCCACGUUGCUGAUGGGAGGUCUCACCGGCCACAGUGAGGGUUGUUUCCUGACAAGACUUUUGUGUUAAGGAUGUGU | 0.471 |
| UUGGGCUCUUAGCUUAGUCUGUUGUUUCAUGCAAACACCGUUGUAACCAAAAGCUUCUGCACUUUGCUUCUGUUCUUCCUGUACAAGAAAUGCAAACGGCCACUGCAUUU | 0.544 |
| ACUCCAGCUGGGGGCGCCACAGCACCCACCACCUGCCGCCUUCAGACUCUCGGGGCUGGUGCCAGUGCCCCAGGGGCCUCCUGGGCCACGGGCUGGAGGGGCUGCCCAGG | 0.441 |
| CGGACAGCCUAGCUGGGGGCUCCCCCAUAUUCCCAGGCCCAGAAGACAGACCCACAGCCCUGCCCUUGUCUCUGAGGCUGAAGACCCCCUGACUCCCAUGCUGUGCUUGC | 2.8 |
| UAUGUGCUUUGUCAUUUUCUUUGCUAAACAAAAGAGGCUAUGAAAGAACUAAAUAUGAGUACAUAAAAUUCUAUCUUUGAUAAAUUUUAUUUUUAUGCCCUACUUAAUAU | 0.749 |
| AUAUACAGUUGAGUUGGGAGUAAACUGAAAAGACAAAUGUGUUGAAGGCUAUGCCAGGGAAUCUGGCUCAAAGCCUAACACAGAAGCAGCUUCAUCCCAGUGACGAUGCU | 0.331 |
| AUAACAACCUUUUACAUUGUGACUGUGUUUGCAUUGUCUAAUGACAGAUAAAUCCUUAACAUUUCUCUCCACCUUAGUACUUUAGACUAAUUGUGUUUGUCCGUCCAUGC | 0.392 |
| CCAUGGAAAGGGCGGAACGAUUCUCCAGGACAGCCAGCUCUUUCGUUGAAGAUCUAUCUAUGCAUUUUUUUACACUUACACAUAAACUGGUAUUUUCGAACAAUAGGAAA | 0.596 |
| CACAUAAAUGUGGCCCUGAUUGUGGAUGAUCUUGAAUGGAAAUAUCUGACCUCAUGCUGCACACACUGUGGAAUUUCUUCAAGGAAGCUGUAGGUCGGUGCAGGAUCCCC | 0.619 |
| UUAGCCUUCCUUGAAGUAUUUGUGGGUGGAUGUUCCGUUAAAUUUUCCAGAAUGCAUUGCACAUCUUUUUAUGAAAUCUAGACUAUGAAAAGGUGAUAAACAUGAAGUAA | 1 |
| UCACACCAAUCUGCAGAAACCUCUUCCCUGGGGUGGAAGCCAGAGAGCUUAGAGGAAAAAGGUCAGCUCUCUUCCUGUUAUACAUGGUUAUACAUGGUUGGGGUUUAAAA | 0.317 |

Repeated from above (sample 3):
| Oligonucleotide | fluorescence intensity [a.u.] |
| --- | --- |
| TGCGCAACAACTTGAGCCGTGGGTGTATGTCTAGAA | 49.6 |
| CTTCTGTAAATTTGTGCCGTGGGTGGACGCGCCCCG | 81.2 |
| TCCAGTGAAGCGCCCCTCGTGCTTTGGAAATCCCTG | 154 |
| AATTGGGGTGCGAGTCACGTGCAAAACGACGGTAGT | 5900 |
| TGCGCAACAACTTGGCGAGTGGGTGTATGTCTAGAA | 56.9 |
| AAAGCGGTAATTTGATTTGTGGGTGCAGATATCTAT | 97.7 |
| ATAGAGCTGTATTCTGAAGACCTCTTGTAGAACATC | 78.1 |
| TGTTAAGTTCAACAACATGTGAAATTCTTAGCTCCG | 117 |
| ATACCAGCACCAGACAACATGGCTCGGTAACCACCA | 61.7 |
| TGCGCAACAACTTTTCACGTGCGGTTATGTCTAGAA | 918 |
| GCCACTTTGTAGCGTCACAATGACTGGGTTTCCCAA | 68.7 |
| AAATTACTAAGTTGCCACGTGGGTGACGCCGTATGA | 988 |
| TTTTACATGAAACTGCGCGTGCCAGAAATGTTAAGA | 126 |
| AAATTACTAAGTTGATACGTGGGTGACGCCGTATGA | 80.1 |
